{"data": "Published values of several laboratories", "note": "Numbered parts are unrelated; each lists some results of a single study."}
{"data": "Set 1", "target": "RNA binding protein fox-1 homolog 2, RRM domain, GST-SBP tag (RBFOX2, Homo sapiens, UniProt O43251-10, residues 100-194)", "method": "RNA Bind-n-Seq", "form": "RNA", "medium": "in vitro", "concentration": "365 nM", "setting": "natural RNA segment, single round, ends assumed", "relative to": "no-protein control", "direction": "higher = stronger binding", "Construct (chain)": "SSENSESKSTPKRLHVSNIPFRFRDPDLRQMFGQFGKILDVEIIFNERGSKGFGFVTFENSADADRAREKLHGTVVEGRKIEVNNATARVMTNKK"}
{"Oligonucleotide": "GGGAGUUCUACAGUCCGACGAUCUACAAUUAGUGUGUAGCAGAGCACAGCAGUUACGAGCUUGUAUAACGAGGACUCUGGAUCCAGAUUUAAGUAGAUUCAAACACCACUUAACACCAGUAACCGAUUUUAGGUGGAAUUCUCGGGUGCCAA", "RBNS enrichment (R)": 0.688}
{"Oligonucleotide": "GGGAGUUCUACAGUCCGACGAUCCAAGUCCCCAUCAUUGCCGGGAGUGUGGAUUCUAGCAGCAGAGCUGGAAACGAUGAGAUUCCACAGACCCCCUAUGGGGGACCCACAACCCAAGACCGCAGACUGGGUGUUGGAAUUCUCGGGUGCCAA", "RBNS enrichment (R)": 0.384}
{"Oligonucleotide": "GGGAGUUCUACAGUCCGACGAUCAAGGAUGCAAAUAGCCGUCUGCGAUUUUGGCGGCCCUCCGGAUUGUGGUGACAAUAUGUUGUACCCGGACAUUCCCAAAUUUAAAUUUGGCAGUGAAAAUUCCACAAAGAUGGAAUUCUCGGGUGCCAA", "RBNS enrichment (R)": 0.333}
{"Oligonucleotide": "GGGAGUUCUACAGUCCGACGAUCCAGUUAUUAAAAUGUUUUGCUAAGAAUUAAAAAUCUUAAACAAACCCGUAAGUGCCACUAGGAAGGAAACCUCAAAUCCACCUACACUGAACCCAGGAACAUCUACAGCAUGGAAUUCUCGGGUGCCAA", "RBNS enrichment (R)": 0.733}
{"Oligonucleotide": "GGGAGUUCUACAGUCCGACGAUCGGAGCCUGGCUGUUUCACAGUAUUUCAUGAAUUUACCCACACAGGUGUGAUCCUCCUUGAGCAUUGAGGAGGCACAUGGAGAACUAAAUCUUUUGUAGUAGCUGAGAUCUUGGAAUUCUCGGGUGCCAA", "RBNS enrichment (R)": 0.688}
{"Oligonucleotide": "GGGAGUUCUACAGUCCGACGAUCGUGUGGAAUAAAAAAGGGAAACUGUUUUCACAAGCUGUUCUUUGUUUCAUAAUUGGAUUCAUCAAUCCCGUAGCUACCCAUAUUGCACUGAGCUUGCCAGUGGUGACUGCUGGAAUUCUCGGGUGCCAA", "RBNS enrichment (R)": 0.488}
{"Oligonucleotide": "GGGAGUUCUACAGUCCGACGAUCAUUUGGGGUGACAUGCUGUCAAAAGGCUAAUAUAGACUGGGUGUGGUAGUGCACACCUUGAAUCUGAGCACUAGGAAAACAGGCAGGUGGAUUUUUGAGUUCAAGACCAGUGGAAUUCUCGGGUGCCAA", "RBNS enrichment (R)": 0.492}
{"data": "Set 2", "target": "Sal-like protein 4, full length isoform A (SALL4, Homo sapiens, UniProt Q9UJQ4, residues 1-1053)", "method": "universal PBM", "form": "double-stranded DNA, one strand shown", "medium": "in vitro", "concentration": "600 nM", "setting": "8-mer, flanks averaged, mean of replicates", "direction": "higher = stronger binding", "UniProt Q9UJQ4, sequence (whole entry, looked up)": "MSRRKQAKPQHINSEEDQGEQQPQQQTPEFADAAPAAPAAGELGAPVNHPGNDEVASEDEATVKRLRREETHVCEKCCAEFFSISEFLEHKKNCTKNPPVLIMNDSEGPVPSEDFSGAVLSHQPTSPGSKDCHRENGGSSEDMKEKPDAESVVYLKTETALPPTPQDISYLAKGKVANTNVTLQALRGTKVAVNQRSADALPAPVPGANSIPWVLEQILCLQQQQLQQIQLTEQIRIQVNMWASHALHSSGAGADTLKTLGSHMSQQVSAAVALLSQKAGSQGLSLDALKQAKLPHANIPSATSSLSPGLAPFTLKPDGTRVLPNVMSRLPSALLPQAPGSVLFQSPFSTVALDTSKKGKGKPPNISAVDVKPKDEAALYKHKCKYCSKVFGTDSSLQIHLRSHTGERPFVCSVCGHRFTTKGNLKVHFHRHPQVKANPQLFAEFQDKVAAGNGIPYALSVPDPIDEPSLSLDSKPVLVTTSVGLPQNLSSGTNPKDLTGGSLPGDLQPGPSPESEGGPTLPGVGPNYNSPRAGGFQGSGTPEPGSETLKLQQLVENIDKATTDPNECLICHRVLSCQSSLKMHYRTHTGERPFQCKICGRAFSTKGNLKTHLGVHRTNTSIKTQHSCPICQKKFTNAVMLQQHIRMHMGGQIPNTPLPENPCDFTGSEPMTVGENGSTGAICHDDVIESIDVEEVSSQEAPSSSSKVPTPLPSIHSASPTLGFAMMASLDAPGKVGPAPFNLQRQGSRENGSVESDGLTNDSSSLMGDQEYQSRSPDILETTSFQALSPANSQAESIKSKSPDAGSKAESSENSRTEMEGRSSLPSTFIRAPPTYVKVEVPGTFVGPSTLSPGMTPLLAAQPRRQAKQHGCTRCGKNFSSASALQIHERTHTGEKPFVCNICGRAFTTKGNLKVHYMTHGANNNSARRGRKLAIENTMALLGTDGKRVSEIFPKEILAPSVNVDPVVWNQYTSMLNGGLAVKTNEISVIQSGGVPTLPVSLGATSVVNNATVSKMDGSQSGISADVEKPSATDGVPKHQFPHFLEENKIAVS"}
{"Oligonucleotide": "ACCCTAGT", "E-score": -0.105}
{"Oligonucleotide": "CATAATGG", "E-score": 0.0763}
{"Oligonucleotide": "AGATCCCG", "E-score": -0.155}
{"Oligonucleotide": "ATTTCCGA", "E-score": 0.227}
{"Oligonucleotide": "AACTTTCC", "E-score": -0.0613}
{"Oligonucleotide": "CTCTGCTA", "E-score": -0.101}
{"Oligonucleotide": "ACAATTCT", "E-score": 0.168}
{"data": "Set 3", "target": "Interferon regulatory factor 5, full length, phosphomimetic (IRF5, Homo sapiens, UniProt Q13568-2, residues 1-514, K96S/S451D/S453D/S456D/S462D)", "method": "protein-binding microarray", "form": "double-stranded DNA, one strand shown", "medium": "in vitro", "concentration": "250 nM", "setting": "60-bp whole probe", "with": "salmon DNA 0.4 mg/ml", "relative to": "random background probes", "direction": "higher = stronger binding", "all sequences stand within": "GCCTAGCAC … GTCTTGATTCGCTTGACGCTGCTG"}
{"Oligonucleotide": "TTAGGTATCCTTCTTCTTTAGTGCTAG", "log fluorescence [z-score]": 0.648}
{"Oligonucleotide": "GACGAACTGAGTCTCGAGACGTGCTAG", "log fluorescence [z-score]": -0.0427}
{"Oligonucleotide": "TTAGCTTTCGGGTATCGGTTAGTGCTA", "log fluorescence [z-score]": 10.3}
{"Oligonucleotide": "TTAGGACTGGGTTTCAGTTAGTGCTAG", "log fluorescence [z-score]": 1.61}
{"Oligonucleotide": "TTAGGTCTCGTACTGGGTTAGTGCTAG", "log fluorescence [z-score]": -0.131}
{"data": "Mixed results"}
{"Molecule": "PhoQ, residues 284 288 289 292 302 303 SMMNNA", "target": "PhoP, residues 12 14 15 18 19 LHSVW (Escherichia coli, UniProt P23836)", "assay": "Sort-seq, refers to: YFP reporter", "test system": "E. coli", "conditions": "PhoQ-PhoP variant library, with: 10 µM Mg2+", "how to read": "relative to: high Mg2+ state, higher = stronger signaling", "endpoint": "fold induction", "result": 3.95}
{"note": "A few entries again (set 1):"}
{"Oligonucleotide": "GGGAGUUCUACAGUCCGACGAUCCAAGUCCCCAUCAUUGCCGGGAGUGUGGAUUCUAGCAGCAGAGCUGGAAACGAUGAGAUUCCACAGACCCCCUAUGGGGGACCCACAACCCAAGACCGCAGACUGGGUGUUGGAAUUCUCGGGUGCCAA", "RBNS enrichment (R)": 0.384}
{"Oligonucleotide": "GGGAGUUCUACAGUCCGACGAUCUACAAUUAGUGUGUAGCAGAGCACAGCAGUUACGAGCUUGUAUAACGAGGACUCUGGAUCCAGAUUUAAGUAGAUUCAAACACCACUUAACACCAGUAACCGAUUUUAGGUGGAAUUCUCGGGUGCCAA", "RBNS enrichment (R)": 0.688}
